Assay results from different studies.
Protocols differ between the studies behind these lines. Values joined by “and” are separate records of one study, mostly repeats; a detail may differ.

Structure (SMILES)	target or system	assay	test system	setting	scale	endpoint	value
COc1ccc(Cn2cc(CCO[C@@H]3O[C@H]4[C@H](OC[C@H]4O)[C@H]3O)nn2)cc1	SU-DHL10	cytotoxicity, CellTiter-Glo		up to 30 µM, 72 h		viability	not toxic
COc1cc2c(cc1OC)-c1c(oc3c4c(cc(O)c3c1=O)OC(C)(C)C=C4)CO2	SW480	cell growth or viability, MTT		100 µg/mL		viability	76.7%
CO[C@H]1C=C[C@@H](OC(=O)c2ccccc2)[C@H](O)[C@@]1(O)COC(=O)c1ccccc1	SW480	cell growth or viability, MTT		100 µg/mL		viability	65.3%
Cc1cc(Cl)cc(-c2ccnc3cc(CN4C(=O)C5C(C4=O)C5(C)C)sc23)c1C[C@@H]1CNCCO1 (stereo partly shown)	CAPAN-1	cell growth or viability, SRB		82.3 nM, 5 days		viability	63.9% and 90.9% and 73.6%
COc1cc(N2CCN(C(=O)CN)CC2)ccc1Nc1ncc(Cl)c(Nc2ccccc2P(C)(C)=O)n1	NCI-H3122	cell growth or viability, CCK-8		25 nM, 48 h		viability	66%
CN1CCCNC(=O)c2cccc(c2)C(=O)NCCCN(C)CCCNc2cccc3c2C(=O)c2cccc(c2C3=O)NCCC1	SAS	cell growth or viability, CCK-8		1.5 µM, 48 h		viability	34.2%
COc1cc(N2CCN(C(=O)C3CCCN3)CC2)ccc1Nc1ncc(Cl)c(Nc2ccccc2P(C)(C)=O)n1 (stereo not shown)	Ba/F3 EML4-ALK	cell growth or viability, CCK-8		1 µM, 24 h		viability	5% and 6%
O=C(OC[C@@]1(O)C(=O)C=C[C@H]2[C@@H]1[C@H]1C=C[C@@H]2C(=O)[C@]1(O)COC(=O)c1ccccc1)c1ccccc1	SW480	cell growth or viability, MTT		25 µg/mL		viability	75.2%
CC(C)=CCc1c(O)c(CC=C(C)C)c2occ(-c3ccc(O)c(O)c3)c(=O)c2c1O	SW480	cell growth or viability, MTT		100 µg/mL		viability	97.2%
COC1C=CC(OC(=O)C=Cc2ccccc2)C(O)C1(O)COC(=O)c1ccccc1 (single isomer, unassigned; (-))	SW480	cell growth or viability, MTT		100 µg/mL		viability	65.1%
COC1CN([C@H]2CC[C@H]([C@@]3(C)Oc4c(Cl)cc(C(=O)NCc5c(SC)cc(C)[nH]c5=O)c(C)c4O3)CC2)C1		RNA-seq, item: PDGFRL	human, whole blood	dose not given, 24 h	relative to: pretreatment baseline	log2 fold change	4.88
COc1cc2c(cc1OC)[C@@H]1C(=O)c3c(O)cc4c(c3O[C@@H]1CO2)C=CC(C)(C)O4	SW480	cell growth or viability, MTT		100 µg/mL		viability	77.5%
O=C(c1ccc(C(=O)N2CCC(N3CCCCC3)CC2)cc1)N1CCC(N2CCCCC2)CC1	HEK-293T/17	CellTiter-Glo		up to 100 µM, 24 h		viability	not toxic

Repeated from above:
Structure (SMILES)	target or system	assay	test system	setting	scale	endpoint	value
COC1CN([C@H]2CC[C@H]([C@@]3(C)Oc4c(Cl)cc(C(=O)NCc5c(SC)cc(C)[nH]c5=O)c(C)c4O3)CC2)C1		RNA-seq, item: PDGFRL	human, whole blood	dose not given, 24 h	relative to: pretreatment baseline	log2 fold change	4.88
